# Published values from different studies.
# Parts stem from different laboratories: compare values within a part only. Values joined by “and” are separate records of one study, mostly repeats; a detail may differ.
# UniProt P23458, sequence (whole entry, looked up): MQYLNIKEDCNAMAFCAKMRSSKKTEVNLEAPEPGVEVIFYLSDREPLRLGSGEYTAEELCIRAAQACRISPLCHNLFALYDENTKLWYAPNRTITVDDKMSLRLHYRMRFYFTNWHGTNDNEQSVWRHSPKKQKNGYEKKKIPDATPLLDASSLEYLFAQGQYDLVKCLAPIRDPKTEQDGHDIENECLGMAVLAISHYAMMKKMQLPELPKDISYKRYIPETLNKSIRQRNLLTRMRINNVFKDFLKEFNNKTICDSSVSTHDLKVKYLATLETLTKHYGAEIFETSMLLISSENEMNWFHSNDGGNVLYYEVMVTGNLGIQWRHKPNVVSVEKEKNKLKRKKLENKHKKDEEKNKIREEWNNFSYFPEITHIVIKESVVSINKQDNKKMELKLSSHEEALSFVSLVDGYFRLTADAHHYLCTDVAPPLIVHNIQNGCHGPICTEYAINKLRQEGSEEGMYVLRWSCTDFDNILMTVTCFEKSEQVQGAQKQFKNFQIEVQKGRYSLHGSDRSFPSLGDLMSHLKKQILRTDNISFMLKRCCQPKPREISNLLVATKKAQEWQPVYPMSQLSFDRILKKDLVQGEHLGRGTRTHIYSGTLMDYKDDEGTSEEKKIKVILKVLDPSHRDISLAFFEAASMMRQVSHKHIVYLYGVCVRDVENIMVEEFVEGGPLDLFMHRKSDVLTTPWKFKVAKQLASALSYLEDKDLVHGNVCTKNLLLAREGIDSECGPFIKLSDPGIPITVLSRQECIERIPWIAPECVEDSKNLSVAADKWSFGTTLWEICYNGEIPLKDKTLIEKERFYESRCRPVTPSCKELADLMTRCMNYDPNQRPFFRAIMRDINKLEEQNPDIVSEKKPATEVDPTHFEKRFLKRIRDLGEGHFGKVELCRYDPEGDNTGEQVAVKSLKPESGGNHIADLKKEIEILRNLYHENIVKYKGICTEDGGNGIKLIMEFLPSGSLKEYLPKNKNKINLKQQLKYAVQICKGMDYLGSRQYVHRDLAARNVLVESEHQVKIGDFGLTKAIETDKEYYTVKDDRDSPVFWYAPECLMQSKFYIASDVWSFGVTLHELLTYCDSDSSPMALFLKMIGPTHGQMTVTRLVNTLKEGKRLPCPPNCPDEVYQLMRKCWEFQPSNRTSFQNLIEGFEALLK
# UniProt P08069, sequence (whole entry, looked up): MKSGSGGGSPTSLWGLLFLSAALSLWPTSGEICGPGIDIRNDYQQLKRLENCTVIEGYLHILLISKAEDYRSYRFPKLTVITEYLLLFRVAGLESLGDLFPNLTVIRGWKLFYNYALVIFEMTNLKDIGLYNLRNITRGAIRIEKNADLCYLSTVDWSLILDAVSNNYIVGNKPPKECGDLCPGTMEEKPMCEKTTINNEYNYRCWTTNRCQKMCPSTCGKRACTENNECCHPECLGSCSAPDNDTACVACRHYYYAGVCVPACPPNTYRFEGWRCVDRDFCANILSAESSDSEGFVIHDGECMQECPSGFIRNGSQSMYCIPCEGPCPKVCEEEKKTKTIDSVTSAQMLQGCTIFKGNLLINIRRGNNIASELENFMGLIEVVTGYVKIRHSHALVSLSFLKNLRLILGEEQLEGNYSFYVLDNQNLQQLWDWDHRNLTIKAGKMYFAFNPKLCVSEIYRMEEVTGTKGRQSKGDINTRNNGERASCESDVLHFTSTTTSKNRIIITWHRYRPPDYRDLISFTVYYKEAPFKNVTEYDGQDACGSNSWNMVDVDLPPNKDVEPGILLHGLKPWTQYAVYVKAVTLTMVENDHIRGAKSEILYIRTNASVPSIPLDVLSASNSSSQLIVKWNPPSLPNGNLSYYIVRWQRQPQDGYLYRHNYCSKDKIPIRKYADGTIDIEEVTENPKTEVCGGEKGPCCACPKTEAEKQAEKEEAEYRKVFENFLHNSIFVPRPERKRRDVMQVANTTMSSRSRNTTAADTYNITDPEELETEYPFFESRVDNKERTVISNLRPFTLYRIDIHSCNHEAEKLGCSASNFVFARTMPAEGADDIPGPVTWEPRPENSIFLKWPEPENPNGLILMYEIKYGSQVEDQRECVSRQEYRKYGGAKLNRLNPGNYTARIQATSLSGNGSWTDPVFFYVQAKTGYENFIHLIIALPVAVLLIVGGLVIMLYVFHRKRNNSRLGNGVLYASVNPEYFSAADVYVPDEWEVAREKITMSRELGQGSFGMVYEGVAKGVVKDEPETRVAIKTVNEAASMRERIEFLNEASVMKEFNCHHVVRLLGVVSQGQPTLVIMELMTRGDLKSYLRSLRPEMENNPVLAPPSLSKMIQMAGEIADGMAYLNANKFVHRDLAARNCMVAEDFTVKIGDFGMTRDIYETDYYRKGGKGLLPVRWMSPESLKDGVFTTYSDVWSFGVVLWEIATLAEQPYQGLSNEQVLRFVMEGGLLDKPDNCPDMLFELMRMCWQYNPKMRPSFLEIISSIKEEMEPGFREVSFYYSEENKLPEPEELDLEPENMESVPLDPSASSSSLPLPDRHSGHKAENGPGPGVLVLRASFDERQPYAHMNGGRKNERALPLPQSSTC
# UniProt Q06418, sequence (whole entry, looked up): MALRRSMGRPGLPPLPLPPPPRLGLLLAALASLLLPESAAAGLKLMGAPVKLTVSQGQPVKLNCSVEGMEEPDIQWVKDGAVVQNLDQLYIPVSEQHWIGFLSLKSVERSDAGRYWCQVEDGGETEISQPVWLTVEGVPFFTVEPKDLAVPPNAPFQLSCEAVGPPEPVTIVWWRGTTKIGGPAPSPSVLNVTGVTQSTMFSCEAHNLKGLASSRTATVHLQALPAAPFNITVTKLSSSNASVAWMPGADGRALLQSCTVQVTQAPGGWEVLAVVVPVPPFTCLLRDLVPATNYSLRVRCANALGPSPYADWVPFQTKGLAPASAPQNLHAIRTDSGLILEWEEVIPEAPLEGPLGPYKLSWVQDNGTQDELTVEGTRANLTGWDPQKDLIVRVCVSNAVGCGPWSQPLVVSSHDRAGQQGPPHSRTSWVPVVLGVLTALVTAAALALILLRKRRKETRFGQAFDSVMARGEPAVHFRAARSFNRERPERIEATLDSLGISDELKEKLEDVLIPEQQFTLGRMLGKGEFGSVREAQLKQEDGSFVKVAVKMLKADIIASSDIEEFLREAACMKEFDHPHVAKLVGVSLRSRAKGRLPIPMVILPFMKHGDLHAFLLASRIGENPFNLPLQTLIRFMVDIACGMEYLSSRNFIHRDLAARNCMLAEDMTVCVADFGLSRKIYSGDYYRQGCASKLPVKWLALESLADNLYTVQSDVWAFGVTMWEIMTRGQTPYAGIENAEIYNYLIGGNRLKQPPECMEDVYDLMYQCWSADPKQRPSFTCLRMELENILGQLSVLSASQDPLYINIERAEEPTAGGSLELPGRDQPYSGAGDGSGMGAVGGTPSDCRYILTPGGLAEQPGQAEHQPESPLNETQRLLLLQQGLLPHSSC
# UniProt P49759, sequence (whole entry, looked up): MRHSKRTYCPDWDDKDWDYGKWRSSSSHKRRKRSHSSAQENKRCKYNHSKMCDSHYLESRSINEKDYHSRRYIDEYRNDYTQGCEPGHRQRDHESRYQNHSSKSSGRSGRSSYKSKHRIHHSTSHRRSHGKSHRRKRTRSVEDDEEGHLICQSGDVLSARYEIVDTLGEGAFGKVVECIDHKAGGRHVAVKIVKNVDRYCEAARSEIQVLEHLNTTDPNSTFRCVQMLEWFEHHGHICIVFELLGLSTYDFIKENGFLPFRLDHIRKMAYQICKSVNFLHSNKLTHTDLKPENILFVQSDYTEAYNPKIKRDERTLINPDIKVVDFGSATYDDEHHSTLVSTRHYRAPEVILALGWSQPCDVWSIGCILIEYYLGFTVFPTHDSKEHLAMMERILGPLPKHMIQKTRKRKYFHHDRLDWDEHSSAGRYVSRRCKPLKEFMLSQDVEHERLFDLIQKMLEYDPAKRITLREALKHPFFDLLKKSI
# UniProt O15197, sequence (whole entry, looked up): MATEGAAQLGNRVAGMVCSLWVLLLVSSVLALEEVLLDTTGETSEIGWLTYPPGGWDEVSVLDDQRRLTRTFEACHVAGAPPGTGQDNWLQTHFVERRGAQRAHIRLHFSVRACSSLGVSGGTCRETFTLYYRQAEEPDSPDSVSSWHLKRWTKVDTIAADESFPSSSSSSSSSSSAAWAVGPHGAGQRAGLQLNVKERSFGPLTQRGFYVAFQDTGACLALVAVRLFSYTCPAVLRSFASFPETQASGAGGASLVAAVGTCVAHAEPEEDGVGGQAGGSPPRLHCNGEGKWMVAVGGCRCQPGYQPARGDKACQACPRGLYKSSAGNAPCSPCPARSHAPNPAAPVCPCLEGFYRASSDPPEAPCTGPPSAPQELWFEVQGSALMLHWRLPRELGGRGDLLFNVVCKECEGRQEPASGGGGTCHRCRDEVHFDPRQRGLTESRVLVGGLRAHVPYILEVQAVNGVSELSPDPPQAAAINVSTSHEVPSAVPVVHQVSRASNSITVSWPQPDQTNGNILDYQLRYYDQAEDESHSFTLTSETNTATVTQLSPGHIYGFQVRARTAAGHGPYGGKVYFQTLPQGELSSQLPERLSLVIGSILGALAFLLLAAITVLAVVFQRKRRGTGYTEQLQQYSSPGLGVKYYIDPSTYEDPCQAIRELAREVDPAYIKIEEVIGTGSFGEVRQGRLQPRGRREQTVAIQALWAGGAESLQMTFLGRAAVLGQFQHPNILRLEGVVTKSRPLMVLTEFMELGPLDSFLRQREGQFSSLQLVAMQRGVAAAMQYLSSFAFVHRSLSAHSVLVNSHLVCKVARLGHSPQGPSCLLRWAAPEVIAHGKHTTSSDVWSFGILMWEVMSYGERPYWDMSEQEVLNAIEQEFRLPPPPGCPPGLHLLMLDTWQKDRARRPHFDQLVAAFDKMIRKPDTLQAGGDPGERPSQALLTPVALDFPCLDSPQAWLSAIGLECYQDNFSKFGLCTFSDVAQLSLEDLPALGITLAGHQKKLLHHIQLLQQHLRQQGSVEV

# Block 1
# Structure (SMILES): CN(C)c1ncnc(-c2ccc3nc(Nc4cc(CN5CCN(C(=O)CC(F)(F)F)CC5)ccn4)[nH]c3c2)c1Cl
# Read-out: cell-free assay
# Method: competition with immobilised ligand
# Concentration: 1 µM
target,remaining binding
"IGF1R (Homo sapiens, UniProt P08069)",100%
"ALK (Homo sapiens, UniProt Q9UM73)",75%
"BRAF (Homo sapiens, UniProt P15056, V600E)",84%
"Tyrosine-protein kinase JAK1, JH2 (JAK1, Homo sapiens, UniProt P23458)",68%
"EPHB6 (Homo sapiens, UniProt O15197)",69%

# Block 2
# SMILES: N#CC(c1ccnc(NCCc2cccnc2)n1)c1nc2ccccc2s1 (stereo not shown)
# Read-out: enzyme activity
# Mode: inhibitor
# Concentration: 0.5 µM
# Baseline: control
target,remaining activity [%]
"TEC (Homo sapiens, UniProt P42680)",104
"Cyclin-dependent kinase 2, with cyclin E (CDK2, Homo sapiens, UniProt P24941)",82.7
"EPHA6 (Homo sapiens, UniProt Q9UF33)",87.1
"CSNK1D (Homo sapiens, UniProt P48730)",65
"CLK2 (Homo sapiens, UniProt P49760)",48.5
"CLK1 (Homo sapiens, UniProt P49759)",75.4
"IGF1R (Homo sapiens, UniProt P08069)",100
"SRPK1 (Homo sapiens, UniProt Q96SB4)",97
"MAP3K20 (Homo sapiens, UniProt Q9NYL2)",90.4
"PAK1 (Homo sapiens, UniProt Q13153)",96.5
"SGK2 (Homo sapiens, UniProt Q9HBY8)",100
"CSNK1E (Homo sapiens, UniProt P49674)",74.9
"TYRO3 (Homo sapiens, UniProt Q06418)",98.3
"FLT1 (Homo sapiens, UniProt P17948)",74
"SIK2 (Homo sapiens, UniProt Q9H0K1)",96.4
"PRKCQ (Homo sapiens, UniProt Q04759)",104
"EPHA2 (Homo sapiens, UniProt P29317)",103
"CAMK1 (Homo sapiens, UniProt Q14012)",101
"MUSK (Homo sapiens, UniProt O15146)",14.8
"JAK1 (Homo sapiens, UniProt P23458)",113

# Block 3
# Cell line: HaCaT
# Concentration: 100 µM
# Time: 36 h
Structure (SMILES),viability
CCCCOc1cc(C(=O)OCCN(CC)CC)ccc1N,52%
CC(C)(C)CC(C)(C)c1ccc(O)c(Cc2ccc(Cl)cc2Cl)c1,4.96%
CC(C)=CCC/C(C)=C/C=C/C(C)=C/C=C/C(C)=C/C=C/C=C(C)/C=C/C=C(C)/C=C/C=C(\C)CCC=C(C)C,114%
Nc1nc(N)c2nc(-c3ccccc3)c(N)nc2n1,31%
CO[C@H]1O[C@@H]2O[C@@]3(C)CC[C@H]4[C@H](C)CC[C@@H]([C@H]1C)[C@@]24OO3,75.9%
CC1CNc2c(cccc2S(=O)(=O)N[C@@H](CCCNC(=N)N)C(=O)N2CC[C@@H](C)C[C@@H]2C(=O)O)C1 (stereo partly shown),84.2%
CCCCCCCCN=c1ccn(CCCCCCCCCCn2ccc(=NCCCCCCCC)cc2)cc1,7.07%

# Block 4
# Cell line: mouse MPNST tumor cells
# Method: high-content nuclear imaging
# Measured: cell number
# Concentration: 10 µM
# Time: 12 h
# Notes: mean of 2 replicates
# Baseline: plate mean
# Reading: higher = more cells
SMILES,nuclei count [z-score]
COc1cc(C(=O)NC2CC3CCCC(C2)N3CC(=O)Nc2ccccc2Cl)cc(OC)c1OC (stereo not shown),2.74
CC(C)c1ccc(C(=O)N=C(N)N)cc1S(C)(=O)=O,1.69
COc1ccc(C(=O)Nc2sc3c(c2C(N)=O)CCCC3)cc1OC,2.22
O=C(Nc1cnc(Cl)nc1)c1ccc(F)c(F)c1,1.26
C/C(=N\NC(=O)C1C(=O)NCC1c1ccccc1)c1cccc(Br)c1 (stereo not shown),1.15
CCC[C@H](N[C@@H](C)C(=O)N1[C@H](C(=O)O)C[C@@H]2CCCC[C@@H]21)C(=O)OCC,1.51
CO[C@H]1CNC[C@@H](OCC2CCC(F)(F)CC2)[C@@H]1Nc1ncc(-c2cncc(C)c2)c2cc(C)c(=O)[nH]c12,4.44

# Further values, each from its own experiment
SMILES,test,system,setting,scale,measurement,result
CC(=O)N[C@@H](Cc1c[nH]c2ccccc12)C(=O)N[C@@H](CCC(=O)C=[N+]=[N-])C(=O)OC(C)C,UPLC-MS/MS,"EL4 tumor, C57BL/6 CES1-/- mice, tumor","subcutaneous, 0.3 mg/kg DON equivalent daily, 5 days",higher = more metabolite,sarcosine level,2.85e+06 a.u. and 4.35e+06 a.u. and 4.75e+06 a.u. and 3.76e+06 a.u. and 2.87e+06 a.u. and 3.01e+06 a.u.

# Some of these lines once more (block 2):
target,remaining activity [%]
"MUSK (Homo sapiens, UniProt O15146)",14.8
"SGK2 (Homo sapiens, UniProt Q9HBY8)",100
"PAK1 (Homo sapiens, UniProt Q13153)",96.5
"SIK2 (Homo sapiens, UniProt Q9H0K1)",96.4
